Measurements collected from several papers.
Lines come from different studies, so protocols differ. ± marks the error that the study gave.
Organism: Salmonella typhimurium

| SMILES | assay | system | setting | how to read | endpoint | value |
| --- | --- | --- | --- | --- | --- | --- |
| CNC(=O)c1c(N(C)N=O)ncn1C | plate incorporation | TA1537, water | 2500 µg/plate, without S9 |  | revertant colonies per plate | 9.7 ± 2 |
| COc1cccc(-c2n[nH]c(SCc3ccccn3)n2)c1OC | Ames test, preincubation | TA98 | 0.13 mg/plate, without S9 |  | revertant colonies per plate | 23 |
| OC(CCN1CC=C(c2ccc(F)cc2)CC1)c1ccc(F)c2ccccc12 (stereo not shown) | genotoxicity, SOS/umu test | TA1535/pSK1002 | 0.004 mg/mL, 4 h, without S9, lower range |  | induction factor | 0.7 |
| CC(=O)N1CCC(C(=O)N2CCN3C(=O)c4cc(-c5ccccc5)ccc4NC(=O)C3C2)CC1 (stereo not shown) |  | TA1537 | 500 µg/plate | baseline: vehicle | fold increase in revertants | 1.2 |
| Cc1cc(C(=O)NC(C)(C)COc2cccc3c2C(N)=NS(=O)(=O)N3)cc(C)n1 | Ames test, confirmatory | TA100 | 1000 µg/plate | baseline: solvent control | revertant ratio | 0.9 |
| CC(C)N(C)N=O | mutagenicity, Ames plate incorporation | TA1537 | 50 µg/plate, 3 d, without S9, methanol |  | revertant colonies per plate | 6.7 ± 3 |
| O=[N+]([O-])c1ccc(N2CCC(NCCC(O)c3ccc(F)c4ccccc34)CC2)c(C(F)(F)F)c1 (stereo not shown) | genotoxicity, SOS/umu test | TA1535/pSK1002 | 0.001 mg/mL, 4 h, without S9, lower range |  | induction factor | 0.8 |
| CC(C)N(N=O)C(C)C | mutagenicity, Ames plate incorporation | TA1537 | 2500 µg/plate, without S9, methanol |  | revertant colonies per plate | 13.3 ± 4 |
| O=[N+]([O-])c1ccc(NC2CCNCC2)c(C(F)(F)F)c1 | SOS/umu test | TA1535/pSK1002 | 0.016 mg/mL, 4 h, without S9, full range |  | survival | 104% |
| N#C[C@@]1(n2ccc(N)nc2=O)O[C@H](CO)[C@@H](O)[C@H]1O |  | TA1537 | 50 µM, without S9 |  | viability | 92% |

Excerpt of the above:
| SMILES | assay | system | setting | how to read | endpoint | value |
| --- | --- | --- | --- | --- | --- | --- |
| OC(CCN1CC=C(c2ccc(F)cc2)CC1)c1ccc(F)c2ccccc12 (stereo not shown) | genotoxicity, SOS/umu test | TA1535/pSK1002 | 0.004 mg/mL, 4 h, without S9, lower range |  | induction factor | 0.7 |
